Assay results collected from several papers.
Every numbered part comes from another study and shows a few of its results, in no order. Substitutions count along the parent as printed.
Sequence of UniProt Q84WU6 (whole entry, looked up): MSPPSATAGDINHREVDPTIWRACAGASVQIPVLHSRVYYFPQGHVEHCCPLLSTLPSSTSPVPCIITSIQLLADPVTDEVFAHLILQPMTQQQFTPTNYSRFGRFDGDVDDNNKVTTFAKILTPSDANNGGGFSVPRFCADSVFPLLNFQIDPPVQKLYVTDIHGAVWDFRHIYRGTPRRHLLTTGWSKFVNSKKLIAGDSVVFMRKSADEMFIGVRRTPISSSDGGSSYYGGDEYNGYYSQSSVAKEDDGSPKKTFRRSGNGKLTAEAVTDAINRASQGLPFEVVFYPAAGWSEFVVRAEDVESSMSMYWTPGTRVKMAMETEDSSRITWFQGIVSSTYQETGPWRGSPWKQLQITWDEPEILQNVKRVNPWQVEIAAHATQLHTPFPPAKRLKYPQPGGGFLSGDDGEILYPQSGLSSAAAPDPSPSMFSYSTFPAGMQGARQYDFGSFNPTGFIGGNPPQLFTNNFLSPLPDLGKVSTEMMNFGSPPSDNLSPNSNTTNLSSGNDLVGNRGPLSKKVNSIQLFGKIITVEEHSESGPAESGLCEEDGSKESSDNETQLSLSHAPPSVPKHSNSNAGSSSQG
Sequence of UniProt Q8RYC8 (whole entry, looked up): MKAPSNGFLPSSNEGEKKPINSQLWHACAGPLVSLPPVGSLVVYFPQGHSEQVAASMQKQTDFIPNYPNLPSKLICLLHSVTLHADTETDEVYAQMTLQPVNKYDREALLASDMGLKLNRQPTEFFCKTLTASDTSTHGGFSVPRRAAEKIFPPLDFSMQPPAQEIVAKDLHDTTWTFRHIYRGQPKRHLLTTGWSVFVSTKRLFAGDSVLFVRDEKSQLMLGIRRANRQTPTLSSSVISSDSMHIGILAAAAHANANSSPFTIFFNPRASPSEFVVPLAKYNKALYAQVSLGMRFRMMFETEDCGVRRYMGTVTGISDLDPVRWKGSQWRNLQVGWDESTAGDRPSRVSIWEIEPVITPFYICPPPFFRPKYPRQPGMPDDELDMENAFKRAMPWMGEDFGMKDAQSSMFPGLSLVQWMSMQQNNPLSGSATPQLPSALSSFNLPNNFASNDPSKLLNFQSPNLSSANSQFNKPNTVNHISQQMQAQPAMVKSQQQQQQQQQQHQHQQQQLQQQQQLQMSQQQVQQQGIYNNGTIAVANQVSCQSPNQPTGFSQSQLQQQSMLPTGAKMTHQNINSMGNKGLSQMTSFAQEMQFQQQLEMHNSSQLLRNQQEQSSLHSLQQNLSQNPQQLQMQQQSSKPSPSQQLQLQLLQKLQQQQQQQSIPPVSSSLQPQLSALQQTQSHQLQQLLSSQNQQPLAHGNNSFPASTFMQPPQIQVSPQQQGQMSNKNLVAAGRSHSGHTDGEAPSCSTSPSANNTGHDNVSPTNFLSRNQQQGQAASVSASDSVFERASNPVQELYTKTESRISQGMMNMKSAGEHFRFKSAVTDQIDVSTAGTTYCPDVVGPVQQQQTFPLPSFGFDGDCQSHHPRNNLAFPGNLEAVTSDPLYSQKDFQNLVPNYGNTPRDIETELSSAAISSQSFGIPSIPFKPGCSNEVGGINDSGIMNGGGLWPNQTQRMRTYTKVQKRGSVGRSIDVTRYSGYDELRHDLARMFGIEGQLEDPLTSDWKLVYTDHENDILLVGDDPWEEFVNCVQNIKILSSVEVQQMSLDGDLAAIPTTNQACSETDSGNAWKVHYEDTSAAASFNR
Sequence of UniProt O24407 (whole entry, looked up): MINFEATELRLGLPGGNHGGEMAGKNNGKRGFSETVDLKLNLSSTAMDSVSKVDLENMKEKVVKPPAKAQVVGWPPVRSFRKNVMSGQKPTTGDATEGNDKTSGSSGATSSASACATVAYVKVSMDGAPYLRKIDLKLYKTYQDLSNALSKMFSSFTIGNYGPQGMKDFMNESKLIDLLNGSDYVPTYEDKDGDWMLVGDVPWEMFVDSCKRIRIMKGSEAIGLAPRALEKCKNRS
Sequence of UniProt Q94JM3 (whole entry, looked up): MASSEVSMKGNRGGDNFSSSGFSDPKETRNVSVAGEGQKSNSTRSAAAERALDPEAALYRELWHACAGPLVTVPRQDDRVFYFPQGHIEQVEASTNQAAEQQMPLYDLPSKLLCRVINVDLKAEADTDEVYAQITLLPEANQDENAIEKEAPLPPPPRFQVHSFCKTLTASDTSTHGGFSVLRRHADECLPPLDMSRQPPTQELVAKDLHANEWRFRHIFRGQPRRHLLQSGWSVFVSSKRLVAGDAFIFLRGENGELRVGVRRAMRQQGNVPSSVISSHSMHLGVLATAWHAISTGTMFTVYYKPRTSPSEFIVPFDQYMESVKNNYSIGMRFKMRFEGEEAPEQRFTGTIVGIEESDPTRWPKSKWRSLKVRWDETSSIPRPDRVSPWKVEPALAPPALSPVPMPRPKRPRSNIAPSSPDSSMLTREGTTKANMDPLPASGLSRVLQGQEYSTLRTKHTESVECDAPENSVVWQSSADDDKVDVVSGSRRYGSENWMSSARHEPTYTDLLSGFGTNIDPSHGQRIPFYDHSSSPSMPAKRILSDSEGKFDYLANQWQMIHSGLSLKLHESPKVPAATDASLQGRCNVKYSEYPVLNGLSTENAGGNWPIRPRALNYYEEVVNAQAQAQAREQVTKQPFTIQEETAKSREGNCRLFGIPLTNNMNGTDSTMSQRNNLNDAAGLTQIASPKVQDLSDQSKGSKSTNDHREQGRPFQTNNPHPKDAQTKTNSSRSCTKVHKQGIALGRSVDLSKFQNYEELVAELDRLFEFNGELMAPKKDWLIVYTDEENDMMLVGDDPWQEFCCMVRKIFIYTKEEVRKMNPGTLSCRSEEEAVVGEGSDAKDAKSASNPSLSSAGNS
Sequence of UniProt P93024 (whole entry, looked up): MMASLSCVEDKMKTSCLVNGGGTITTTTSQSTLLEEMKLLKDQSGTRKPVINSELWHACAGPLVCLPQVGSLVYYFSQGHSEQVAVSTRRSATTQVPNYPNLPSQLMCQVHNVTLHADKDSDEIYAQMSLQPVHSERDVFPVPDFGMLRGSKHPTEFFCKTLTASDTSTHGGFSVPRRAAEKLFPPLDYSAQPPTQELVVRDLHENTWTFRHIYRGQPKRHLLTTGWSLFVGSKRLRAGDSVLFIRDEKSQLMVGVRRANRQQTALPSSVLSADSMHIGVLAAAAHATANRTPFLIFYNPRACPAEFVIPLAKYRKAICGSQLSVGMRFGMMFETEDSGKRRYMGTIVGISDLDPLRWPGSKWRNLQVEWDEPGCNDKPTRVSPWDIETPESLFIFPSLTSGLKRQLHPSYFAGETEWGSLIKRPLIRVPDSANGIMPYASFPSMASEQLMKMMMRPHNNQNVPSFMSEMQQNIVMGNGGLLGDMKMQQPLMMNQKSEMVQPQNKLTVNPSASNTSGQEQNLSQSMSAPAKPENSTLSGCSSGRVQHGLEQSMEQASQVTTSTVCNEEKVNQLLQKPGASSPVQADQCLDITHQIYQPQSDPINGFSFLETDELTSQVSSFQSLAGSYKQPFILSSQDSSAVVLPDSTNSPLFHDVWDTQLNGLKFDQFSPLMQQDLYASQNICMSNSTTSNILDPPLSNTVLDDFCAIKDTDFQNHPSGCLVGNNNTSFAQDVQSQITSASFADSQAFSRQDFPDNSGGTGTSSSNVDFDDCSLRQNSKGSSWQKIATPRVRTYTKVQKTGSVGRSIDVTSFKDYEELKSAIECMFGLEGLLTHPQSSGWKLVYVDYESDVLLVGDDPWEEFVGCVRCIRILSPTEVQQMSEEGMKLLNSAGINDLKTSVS
Sequence of UniProt Q8L7G0 (whole entry, looked up): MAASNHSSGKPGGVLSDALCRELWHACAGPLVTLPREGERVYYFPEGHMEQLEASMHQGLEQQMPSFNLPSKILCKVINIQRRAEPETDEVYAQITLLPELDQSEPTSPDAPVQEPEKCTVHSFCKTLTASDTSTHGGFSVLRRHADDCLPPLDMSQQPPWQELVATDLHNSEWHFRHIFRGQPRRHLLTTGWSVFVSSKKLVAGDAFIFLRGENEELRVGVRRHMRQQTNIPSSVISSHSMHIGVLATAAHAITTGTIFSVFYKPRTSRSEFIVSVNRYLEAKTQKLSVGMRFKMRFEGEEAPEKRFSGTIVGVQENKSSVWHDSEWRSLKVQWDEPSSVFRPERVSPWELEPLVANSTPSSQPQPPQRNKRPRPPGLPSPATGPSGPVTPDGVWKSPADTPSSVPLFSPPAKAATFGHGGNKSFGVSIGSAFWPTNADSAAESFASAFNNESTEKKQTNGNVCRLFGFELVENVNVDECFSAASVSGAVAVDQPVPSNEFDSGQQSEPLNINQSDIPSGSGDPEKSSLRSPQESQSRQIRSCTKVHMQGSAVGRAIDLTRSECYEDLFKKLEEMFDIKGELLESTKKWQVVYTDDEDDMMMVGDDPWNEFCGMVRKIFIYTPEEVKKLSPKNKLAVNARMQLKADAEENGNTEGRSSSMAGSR

Study 1 — technique: RNA Bind-n-Seq; molecule type: RNA; medium: in vitro; concentration: 365 nM; baseline: no-protein control; reading: higher = stronger binding
Target: RNA binding protein fox-1 homolog 2, RRM domain, GST-SBP tag (RBFOX2, Homo sapiens, UniProt O43251-10, residues 100-194)
Notes: natural RNA segment, single round, ends assumed
Shared flanks, not repeated: GGGAGUUCUACAGUCCGACGAUC … UGGAAUUCUCGGGUGCCAA
Construct (chain): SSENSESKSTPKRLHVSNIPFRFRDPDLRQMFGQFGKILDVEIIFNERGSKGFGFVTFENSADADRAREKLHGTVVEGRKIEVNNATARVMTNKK
Oligonucleotide	RBNS enrichment (R)
AGAUUUCAAGGAAGAGUGAUUAUUUGAUGAAUGCUAUGGGAAUGGCCUCUUCUCUUGGAGUUCUGAGGCCUGGGGAUGCCCAGGAACACUGGGCACCUGCUGCUGUUAGG	1.39
UUUUUAAUGAUCAGCUUUUCUGUUUAUUGUAAAACUAAGUUAAAAAAUAAAAGGUUAAUGAGAAAUGAAAUGCUAACUGUAUUGACUGUGUACAAAGCUAAAGCAAGAAG	1.13
CCCUUCGAAGGGAAGCCCAAACACUUUGCACGCUGUGCUGCAGACAUUCUGGCCUGGUGUGUCUGAAAGUUGCAUCAGUCCUCACGGUGCAAACACAGUUGAUUUAGGAA	0.255
CCAACAGUGUAAAUGCAUAGCAGUGUUUAUCUGCAUGAGAACUAUGCACUAAUCUAUCUGAAGAAAAAAACUAUAUCAACUUUGGUAUCUACUUUCCGUUUACUUCAAUC	0.615
ACAGUUUACAGAACUCAUGUAACUUGUAGCUAUAAACAUUUUGUGCCAUUAAAGCUCUCACAAAACCGCCUGUCCAUAUAUCAUUUUGACUUCACUCUUGUUGACAAAAA	0.381
CAGGGCUUGCACGUCACUCUGGUCUGUUCAUCGUGGUUCACAGGGCAAGGUGAAAGACACUUGAAUUUCUCUUUUUAGCAAUCUUACUGUUUUCUGGUGCUGACUGCUAC	4.3
GACUCUGUCCACCGGGGCCCUCCCAGGGCUGUGAGGACGGAAACAGGCAGGGAGUGGAGCUAACAGCUUAGUCACCAGGACCCCCAGACCUGCAAACGUCCCCUCCUGGA	0.312
AAAGCACUUAAAAGUGCAAGCAUGUCCUAAAUAGCCAUUUAACCUGGUAAAACAUAGGCUUUUCUGUUUAAUUAAGUAUUAGACCAGUCUGUAGAUAUAAUCUGAAAAGA	0.804
CACACACACACACACACACUCUUGAUCCCUUGCUUCCCUCCCCCAGUGCGUUCUGUGAUCGCCAAGUUCAAAGCUGUGCACAUGUGGACACUCAAUAAAUGUUCAUUGGU	0.6
AUCUACGUGGCUUAUAACAUGUACCAGCCUUGUGGGGACUGCAGUGGGCCAUUCUGAAGAAUCACAAAGACAGAAGACCUCUGGCUAAGAGCAGGCUUCAAACGAUGUGA	0.561
GUUUGCCUCAACAUUCUUUGUCAUCUACAAAGUAUUUUGGCUUACAAAAGUUCUUUGUAAAGAUGCUUAUUUUACAGUUAUCUGACACAGCAGCUUGUUACCAACAUUUU	0.497
CUUUCUUCACAUUCCCACUCCCAUAUUUACACGGGUCACUCUGACUCAGACAGGUACUAUUUGUAAGUAGCAUAGACAGCAGGGGGGUGGGGUGGUCAACCUGUGUCCCC	0.337

Study 2 — target: CCNB1, cyclin fold, Cln2 fusion (human); technique: yeast growth competition, sequencing; medium: yeast; notes: weak parent motif; baseline: not given; reading: higher = stronger binding
Starting sequence: FZR1 docking peptide (human); QDYERRLLRQIVI
Variant	normalised enrichment score
QDYERRLLRQAVI [I11A]	1.36
QDYERRALRQIVI [L7A]	0.877
QDAERRLLRQIVI [Y3A]	0.39
QDYERRLARQIVI [L8A]	0.278
QDYERRLLRQIAI [V12A]	-0.181
QDYARRLLRQIVI [E4A]	0.256
QDYEKRLLRQIVI [R5K]	0.634

Study 3 — technique: protein binding microarray; molecule type: double-stranded DNA, one strand shown; medium: in vitro; concentration: not given; baseline: not given; reading: higher = stronger binding
Target: Histone acetyltransferase KAT6A, winged helix 1, GST fusion (KAT6A, Homo sapiens, UniProt Q92794, residues 1-85)
Notes: 8-mer, flanks averaged, mean of 2 arrays, mostly near background
Residues (chain): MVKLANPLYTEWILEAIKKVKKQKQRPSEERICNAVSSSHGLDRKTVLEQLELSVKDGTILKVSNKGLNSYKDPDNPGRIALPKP
Oligonucleotide	E-score
AGGAATCA	-0.0914
ATTAGTGG	-0.175
AAATATTT	-0.105
CCAAGAGC	-0.0124
ACTTCCAA	-0.255
CGTCGTAC	0.156
ACTATTGA	-0.0938
ACGGGAGG	0.277
CCTGCAGG	-0.203
CCCTCCCC	0.144
GACTCTCA	-0.0344
AAAAACGT	-0.00213
GCCCAGCA	-0.0926
CACGGGAG	0.163
GCAATTTA	-0.0595
CGGGTCCC	0.353
CCTATAAG	-0.114
CCGTTGGC	0.282
AATACTCA	-0.115
CTTTACAC	-0.00721
ACTAAGTA	-0.043
CCGTCTCA	0.217
AGGGCGAG	-0.0359
AAAGCGTA	0.235
GCGAGTCA	0.0585

Study 4 — technique: DHFR PCA, dose-response; medium: yeast; notes: Hill fit, mean, not affinity; added: (+)-ABA, dose series; reading: lower = more sensitive
Target: ABI1, truncated, D143A, DHFR fusion (Arabidopsis thaliana, UniProt P49597)
Starting sequence: PYL1, truncated, DHFR fusion (Arabidopsis thaliana, UniProt Q8VZS8); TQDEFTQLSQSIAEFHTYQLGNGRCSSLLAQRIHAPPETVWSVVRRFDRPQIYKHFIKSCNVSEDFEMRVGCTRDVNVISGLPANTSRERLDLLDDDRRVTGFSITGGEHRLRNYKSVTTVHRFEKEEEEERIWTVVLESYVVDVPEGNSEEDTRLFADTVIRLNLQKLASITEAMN
Variant	ABA EC50
Q51L	160 µM
I133H	2.1 µM
F5E	4.43 µM
T106N	56.2 µM
Q51G	18.3 µM
E109H	16 µM
Y18H	1.73 µM
Q7G	2.82 µM
E109P	124 µM
T160M	4.44 µM
E152Q	2.78 µM
K126M	2.46 µM
D75L	0.827 µM

Study 5 — technique: protein-binding microarray; molecule type: double-stranded DNA, one strand shown; medium: in vitro; concentration: 250 nM; notes: 60-bp whole probe; added: salmon DNA 0.4 mg/ml; baseline: random background probes; reading: higher = stronger binding; shared flanks, not repeated: GCCTAGCAC … GTCTTGATTCGCTTGACGCTGCTG
Target: Interferon regulatory factor 7, full length, phosphomimetic (IRF7, Homo sapiens, UniProt Q92985, residues 1-503, S101K/S471D/S472D/S475D/S476D/S477D/S483D/S484D/S487D)
Construct (chain): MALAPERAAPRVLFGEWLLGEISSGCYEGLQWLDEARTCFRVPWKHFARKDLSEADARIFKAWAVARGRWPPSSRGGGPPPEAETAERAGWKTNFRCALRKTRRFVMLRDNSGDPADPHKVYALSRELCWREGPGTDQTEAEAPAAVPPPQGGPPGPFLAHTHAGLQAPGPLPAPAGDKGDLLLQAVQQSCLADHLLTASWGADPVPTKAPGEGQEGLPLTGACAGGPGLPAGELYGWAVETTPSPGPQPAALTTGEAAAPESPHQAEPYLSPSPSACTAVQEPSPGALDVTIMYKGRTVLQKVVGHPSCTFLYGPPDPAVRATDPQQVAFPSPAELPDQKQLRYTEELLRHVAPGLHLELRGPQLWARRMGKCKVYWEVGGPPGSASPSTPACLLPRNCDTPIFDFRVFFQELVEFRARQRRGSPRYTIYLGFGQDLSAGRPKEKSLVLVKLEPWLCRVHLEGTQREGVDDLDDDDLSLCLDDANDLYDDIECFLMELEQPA
Oligonucleotide	log fluorescence [z-score]
GACGATCTCAGTCTGGAGACGTGCTAG	-0.357
TTAGATTTCAGATTCGATTAGTGCTAG	3.9
GACGGACTGGGGTATCGCGACGTGCTA	-0.812
TTAGTACTGCTTCTCCTTTAGTGCTAG	1.09
GCTCCTTCCCCTCTAGGTCTGTGCTAG	0.67
CCAGGTTGGGAGGGGTAGGGGTGCTAG	1.86
TTACGACTGCTTTTCCTTTAGTGCTAG	0.404
TTAGGTCTCGGTCTCGTTTAGTGCTAG	3.08
AGTCCTGTCCAAGATGAGGAGTGCTAG	0.275
TAAGAACTGAGTCTCGATTAGTGCTAG	1.73
GACGATATCAGTATCGGGACGTGCTAG	-0.0204
TTAGGACTGGACTATCAGTTAGTGCTA	-0.554
GCCGATATCGGGTTTCGAGACGTGCTA	3.38
TTAGATATCAGGATCGATTAGTGCTAG	0.53
GACGATTTCAGGCTGGAGACGTGCTAG	-0.211
CATTGCCTATTTTTCCCCTGGTGCTAG	1.27
GACGGTTCCGACTTTCGGGACGTGCTA	1.22

Study 6 — Molecule: B1 (IAA15); technique: two-hybrid; reading: higher = firmer interaction
B1: IAA15 (Arabidopsis thaliana, UniProt Q9C966); chain MSPEEYVRVWPDSGDLGGTELTLALPGTPTNASEGPKKFGNKRRFLETVDLKLGEAHENNYISSMVTNDQLVGWPPVATARKTVRRKYVKVALDGAAYLRKVDLGMYDCYGQLFTALENMFQGIITICRVTELERKGEFVATYEDKDGDLMLVGDVPWMMFVESCKRMRLMKTGDAIGL
partner	setting	how to read	positive tests
IAA16 (Arabidopsis thaliana, UniProt O24407)		baseline: out of 4 tests	2
ARF2 727-859 (Arabidopsis thaliana, UniProt Q94JM3)		baseline: out of 4 tests	1
ARF1 538-665 (Arabidopsis thaliana, UniProt Q8L7G0)		baseline: out of 4 tests	0
ARF5 788-902 (Arabidopsis thaliana, UniProt P93024)		baseline: out of 4 tests	4
ARF19 948-1086 (Arabidopsis thaliana, UniProt Q8RYC8)		baseline: out of 2 tests	2
ARF17 (Arabidopsis thaliana, UniProt Q84WU6)	weak activation fusion	baseline: out of 4 tests	0

For quick reference, copied from above (study 3):
Oligonucleotide	E-score
ACTATTGA	-0.0938
ACGGGAGG	0.277
CCTGCAGG	-0.203
CCCTCCCC	0.144
GACTCTCA	-0.0344
AAAAACGT	-0.00213
GCCCAGCA	-0.0926
CACGGGAG	0.163
GCAATTTA	-0.0595
CGGGTCCC	0.353
CCTATAAG	-0.114
